{"data": "Measured values pooled from the literature", "note": "Protocols differ between the studies behind these lines. Values joined by “and” are separate records of one study, mostly repeats; a detail may differ. ± gives the spread as reported."}
{"Compound": "CC(=O)c1cc(C(=O)N[C@@H](C)Cn2ccc(-c3ccc(C#N)c(Cl)c3)n2)[nH]n1", "test system": "human, fasted, plasma", "setting": "oral, 300 mg darolutamide tablet, geometric mean", "Cmax": "1260 ng/mL"}
{"Compound": "CC(=O)O.NC(=O)c1cnc(N[C@@H]2CCCC[C@@H]2N)nc1Nc1cccc(-n2nccn2)c1", "test system": "human, plasma", "setting": "oral, 110 mg once daily", "Cmax": "223 ng/mL"}
{"Compound": "FC(F)(F)c1ccc(CNc2ccc(Cc3c[nH]c4ncc(Cl)cc34)cn2)cn1", "test system": "human, plasma", "setting": "oral, 600 mg, single dose", "Cmax": "4140 ng/mL"}
{"Compound": "NC1(C(=O)N[C@@H](CCO)c2ccc(Cl)cc2)CCN(c2ncnc3[nH]ccc23)CC1", "test system": "human, plasma", "setting": "480 mg twice daily, day 4, 4 days on, 3 days off", "Cmax": "1430 ng/mL"}
{"Compound": "CCN(CCO)CCCC(C)Nc1ccnc2cc(Cl)ccc12 (centres unmarked)", "test system": "human patient, whole blood", "setting": "oral, 200 mg, steady state", "Cmax": "932 ng/mL and 578 ng/mL"}
{"Compound": "Cl.[2H]C([2H])([2H])CC(=O)c1cnc(NC(=O)C2CC2)cc1Nc1cccc(-c2ncn(C([2H])([2H])[2H])n2)c1OC", "test system": "human, fasted, multiple dose", "setting": "oral, 10 mg once daily, tablet, day 1, geometric mean", "Cmax": "88.2 ng/mL"}
{"Compound": "C[C@H](CCC(=O)NCC(=O)O)[C@H]1CC[C@H]2[C@@H]3[C@H](O)C[C@@H]4C[C@H](O)CC[C@]4(C)[C@H]3CC[C@]12C", "test system": "human, plasma", "setting": "concentration not given, endogenous baseline diurnal", "Cmax": "1410 ± 235 nM"}
{"Compound": "Nc1ccn([C@@H]2O[C@H](CO)[C@@H](O)C2(F)F)c(=O)n1", "assay": "HPLC-UV", "test system": "human, plasma", "setting": "intravenous, 800 mg/m^2, median, before paricalcitol", "Cmax": "15000 ng/mL"}
{"Compound": "Cc1cn(C(=O)c2c(-c3c(Cl)cc(Cl)cc3Cl)noc2C(C)(C)F)c2cccc(/C=C/C(=O)O)c12", "test system": "human patients", "setting": "500 mg bid, cycle 1 day 1", "Cmax": "16900 ng/mL"}
{"Compound": "CCN1CCN(Cc2ccc(Nc3ncc(F)c(-c4cc(F)c5nc6n(c5c4)[C@H](C)CCC6)n3)nc2)CC1", "test system": "human, plasma", "setting": "300 mg multiple dosing, mean", "Cmax": "361 ng/mL"}
{"Compound": "Cn1nnc2c(C(N)=O)ncn2c1=O", "test system": "human patients, plasma", "setting": "oral, 20 mg/m2, day 5, dose level DL3, median, together with: talazoparib 600 µg/m2", "Cmax": "430 ng/mL"}
{"Compound": "COc1cc2ncnc(Nc3ccc(F)c(Cl)c3)c2cc1NC(=O)/C=C/CN1CCCCC1", "test system": "human, normal hepatic function (Child-Pugh), plasma", "setting": "single dose, geometric mean, total drug", "Cmax": "12.7 ng/mL"}
{"Compound": "CNC(=O)c1cc(Oc2ccc(NC(=O)Nc3ccc(Cl)c(C(F)(F)F)c3)cc2)ccn1", "test system": "human, plasma", "setting": "oral, 200 mg daily, median, dose level -4, together with: carboplatin AUC 2, gemcitabine 500 mg/m2", "Cmax": "2800 ng/mL"}
{"Compound": "CC(=O)O[C@H]1C(=O)[C@@]2(C)[C@H]([C@H](OC(=O)c3ccccc3)[C@]3(O)C[C@H](OC(=O)[C@H](O)[C@@H](NC(=O)c4ccccc4)c4ccccc4)C(C)=C1C3(C)C)[C@]1(OC(C)=O)CO[C@@H]1C[C@@H]2O", "assay": "noncompartmental analysis", "test system": "human cancer patients, plasma", "setting": "intravenous infusion, 60 mg/m^2, cycle 1 day 15, together with: daily oral co-medication", "Cmax": "1920 ng/mL"}
{"Compound": "Cn1c(=O)oc2ccc(-c3ccc(C[C@@H](C#N)NC(=O)[C@@H]4CNCCCO4)cc3)cc21", "test system": "human, moderate renal impairment, plasma", "setting": "oral, 25 mg single dose, mean", "Cmax": "187 ng/mL"}
{"Compound": "N#Cc1cc(NC(=O)[C@H]2c3ccccc3C(=O)N(CC(F)(F)F)[C@@H]2c2cccnc2)ccc1F", "test system": "human, plasma", "setting": "oral, 600 mg, fed, median, interim", "Cmax": "1730 ng/mL"}
{"Compound": "Cc1cc(C)c(CNC(=O)c2cc(Cl)c3c(c2C)O[C@@](C)([C@H]2CC[C@H](N(C)C)CC2)O3)c(=O)[nH]1", "assay": "mean", "test system": "healthy male humans, plasma", "setting": "oral, 25 mg, day 12, together with: fluconazole", "Cmax": "158 ng/mL"}
{"Compound": "CCCOc1ccc([C@H]2CNC(=O)N2c2ccc3[nH]cnc3c2)cc1", "test system": "human elderly fasted, CSF", "setting": "oral, 300 mg twice daily capsule, day 7, geometric mean", "Cmax": "37.3 ng/mL"}
{"Compound": "CO[C@@H]1[C@H](OC(=O)N2CC(CCN3CCOCC3)C2)CC[C@]2(CO2)[C@H]1[C@@]1(C)O[C@@H]1CC=C(C)C", "test system": "humans, plasma", "setting": "subcutaneous, 1.8 mg twice weekly, fifth dose", "Cmax": "10.4 ± 6 ng/mL"}
{"Compound": "Cc1nc(-c2ccc(OCC(C)C)c(C#N)c2)sc1C(=O)O", "test system": "human, plasma", "setting": "oral, 40 mg once daily, together with: verinurad 10 mg", "Cmax": "1100 ng/mL"}
{"note": "Some of these lines once more:"}
{"Compound": "COc1cc2ncnc(Nc3ccc(F)c(Cl)c3)c2cc1NC(=O)/C=C/CN1CCCCC1", "test system": "human, normal hepatic function (Child-Pugh), plasma", "setting": "single dose, geometric mean, total drug", "Cmax": "12.7 ng/mL"}
{"Compound": "CNC(=O)c1cc(Oc2ccc(NC(=O)Nc3ccc(Cl)c(C(F)(F)F)c3)cc2)ccn1", "test system": "human, plasma", "setting": "oral, 200 mg daily, median, dose level -4, together with: carboplatin AUC 2, gemcitabine 500 mg/m2", "Cmax": "2800 ng/mL"}
{"Compound": "CC(=O)O[C@H]1C(=O)[C@@]2(C)[C@H]([C@H](OC(=O)c3ccccc3)[C@]3(O)C[C@H](OC(=O)[C@H](O)[C@@H](NC(=O)c4ccccc4)c4ccccc4)C(C)=C1C3(C)C)[C@]1(OC(C)=O)CO[C@@H]1C[C@@H]2O", "assay": "noncompartmental analysis", "test system": "human cancer patients, plasma", "setting": "intravenous infusion, 60 mg/m^2, cycle 1 day 15, together with: daily oral co-medication", "Cmax": "1920 ng/mL"}
